{"data": "Measured values gathered from unrelated publications", "note": "Parts stem from different laboratories: compare values within a part only. Substitutions count along the parent as printed."}
{"data": "Sample 1", "target": "RNA binding protein fox-1 homolog 2, RRM domain, GST-SBP tag (RBFOX2, Homo sapiens, UniProt O43251-10, residues 100-194)", "technique": "RNA Bind-n-Seq", "form": "RNA", "matrix": "in vitro", "tested at": "365 nM", "notes": "natural RNA segment, single round, ends assumed", "relative to": "no-protein control", "reading": "higher = stronger binding", "Target sequence (chain)": "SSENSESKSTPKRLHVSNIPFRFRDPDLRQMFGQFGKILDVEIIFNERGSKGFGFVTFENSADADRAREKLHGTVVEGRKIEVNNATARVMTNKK"}
{"Sequence": "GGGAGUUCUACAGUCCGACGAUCAUAAGAACACUAGCCCAAAAGGUCUAUGCAGUAGUUAAGUAGUGCUUUUGCUUAUUAUAGGGUGCUCUGAGGGUCUUCUCUGUGUCCUCUGACCCAAGACAAAAUGCACAUGGAAUUCUCGGGUGCCAA", "RBNS enrichment (R)": 0.39}
{"Sequence": "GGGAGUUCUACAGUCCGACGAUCUCUUAACAAAAUGAAAGUUCUCCAAAGACAAAACAGAACAAUUAUUAUAACAAAAUAAUUAUGGUUGAAAUGUCUGUGGUUCCUUGGAAAUGCUGCGCUCUUUGUGUUUUUGGAAUUCUCGGGUGCCAA", "RBNS enrichment (R)": 0.616}
{"Sequence": "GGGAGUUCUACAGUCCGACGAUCAAAAAAACAUAUAAGCAAAUUGAAGCAUGAACGUGGAUUGUAUUUAAGACAUAUACAAAGACAAAUGACAGCAAUUCAUGGUUCAAGUAUAAAGCAGUUCAUUCUACCAAUGGAAUUCUCGGGUGCCAA", "RBNS enrichment (R)": 2.25}
{"Sequence": "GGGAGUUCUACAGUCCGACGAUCUCAGUGUCUGGGGCUCUGGUAGAUGUGUUGAGGGCAAAGUAGAGGACAAGCUGUCUUUCCCAGUCAGCCAGGGAGCUCCCCGCCAGGCCACGCCCCAGCCACUUUGCUCCUGGAAUUCUCGGGUGCCAA", "RBNS enrichment (R)": 0.614}
{"Sequence": "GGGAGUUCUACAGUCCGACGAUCUGUACUUUCCUACCCCAAGAGGAAGUUUUCUGAAAUAAGAUUUAAAAACAAAACAAAAAAAACACUUAAUAUUUCAGACUGUUACAGGAAACACCCUUUAGUCUGUCAGUUGGAAUUCUCGGGUGCCAA", "RBNS enrichment (R)": 0.434}
{"Sequence": "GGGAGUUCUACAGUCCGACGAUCUCACUUUCCUAGGGCCUCCGUGAGGGCUGAGAACAGCUCUGCUCUGCUCCUGUAUUAUUAACUUGCUUCAGUUAACUGACUUGAGAAACUAACCAAUUUUUACCUUCUGCUGGAAUUCUCGGGUGCCAA", "RBNS enrichment (R)": 0.578}
{"Sequence": "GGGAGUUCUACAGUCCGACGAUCACACACGCUCGCACAGUGUUCUGAGGAAGGAACCUUCGCCACAGACUCCUGUACUAUUAACAAUCUGUAACCAAGCUAACUGUCUCAUCCAUGUGUUGAUUUCCUGUUUCUGGAAUUCUCGGGUGCCAA", "RBNS enrichment (R)": 0.801}
{"Sequence": "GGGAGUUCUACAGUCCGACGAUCGAAGAUUACCAAUGAUUUUGAGGCUUUUCUAUAAUAAAAAGAGGUUCUAACCAUUAUUUGGGAACAAAGAGAGUUUUCAUCUUUUUUCAGAUCAAAACCAUUCUGUAAAAUGGAAUUCUCGGGUGCCAA", "RBNS enrichment (R)": 0.312}
{"Sequence": "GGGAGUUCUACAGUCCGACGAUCGUUCUGCAGUGUAAUGGAGGACGGGCAACGUGCAUGUGCAGGCUCACCACUCCCAGGCCUCUGACAUGAGGGACAUGUGACAGUGUCAUUCAGUAUUAUGUUCAAAAGACUGGAAUUCUCGGGUGCCAA", "RBNS enrichment (R)": 3.16}
{"Sequence": "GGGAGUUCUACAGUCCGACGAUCGGAUUCUCGCCUAGCUGAACCAAGAUGUAAAAUAGGAGAAAUGCUCCCUCCAUAGCCAAUCUGCAUCUCGCUCUGGAUGCCCACUCCUGACCUGCCACGCCCUACAUGGUUGGAAUUCUCGGGUGCCAA", "RBNS enrichment (R)": 1.24}
{"Sequence": "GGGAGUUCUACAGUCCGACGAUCCCAGGGCAUGGGGGCAAAUAUGACCCAGUUUUGGGAACACCGACAAACCCAGCCCUGGCGCUGAGCCUCUCUACCCCAGGUCAGACGGACAGAAAGACAGAUCACAGGUAUGGAAUUCUCGGGUGCCAA", "RBNS enrichment (R)": 0.272}
{"Sequence": "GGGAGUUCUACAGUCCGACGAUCCUUUUCUGUGGAUUCUCUCAGUGGACCCACACCAUCUCUAUGUCUCUCCACUCUCCUGCCUUCAGCCAUAGCAAAGAAUCCUUCCAAAAUCAAACUCUUCACUUUUUUGAUGGAAUUCUCGGGUGCCAA", "RBNS enrichment (R)": 0.702}
{"data": "Sample 2", "target": "CCNB1, cyclin fold, Cln2 fusion (human)", "technique": "yeast growth competition, sequencing", "matrix": "yeast", "notes": "strong parent motif", "relative to": "not given", "reading": "higher = stronger binding", "parent": "E2F1 docking peptide (human); PPVKRRLDLETDH; partner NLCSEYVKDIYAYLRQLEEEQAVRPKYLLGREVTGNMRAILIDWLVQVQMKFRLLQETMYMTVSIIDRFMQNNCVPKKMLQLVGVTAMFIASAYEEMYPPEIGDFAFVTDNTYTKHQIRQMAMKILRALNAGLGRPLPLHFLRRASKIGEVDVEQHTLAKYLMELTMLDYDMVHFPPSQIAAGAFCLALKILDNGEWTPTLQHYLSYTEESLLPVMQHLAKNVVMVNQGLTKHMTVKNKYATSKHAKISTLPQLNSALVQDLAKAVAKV"}
{"Change": "R6G", "normalised enrichment score": 0.731}
{"Change": "D8G", "normalised enrichment score": 0.816}
{"Change": "T11N", "normalised enrichment score": 0.896}
{"Change": "R5E", "normalised enrichment score": 0.263}
{"Change": "T11E", "normalised enrichment score": 1.86}
{"Change": "L7S", "normalised enrichment score": 0.0775}
{"Change": "R6Y", "normalised enrichment score": 0.595}
{"Change": "D8C", "normalised enrichment score": 0.673}
{"Change": "D8P", "normalised enrichment score": 0.339}
{"Change": "D12M", "normalised enrichment score": 0.99}
{"Change": "R6D", "normalised enrichment score": -0.23}
{"Change": "V3A", "normalised enrichment score": 1.15}
{"Change": "E10A", "normalised enrichment score": 1.54}
{"Change": "T11Y", "normalised enrichment score": 2.55}
{"Change": "R6P", "normalised enrichment score": 0.401}
{"Change": "P2L", "normalised enrichment score": -0.00132}
{"Change": "K4F", "normalised enrichment score": 1.22}
{"Change": "K4Q", "normalised enrichment score": 1.56}
{"data": "Sample 3", "target": "FOSL1, bZIP domain (human)", "technique": "DHFR protein complementation", "matrix": "yeast", "notes": "single substitutions, most at no-binding floor", "relative to": "wild-type JUN-FOS pair", "reading": "higher = stronger binding", "parent": "JUN, bZIP domain (human); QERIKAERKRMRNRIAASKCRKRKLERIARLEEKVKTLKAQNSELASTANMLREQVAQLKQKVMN; partner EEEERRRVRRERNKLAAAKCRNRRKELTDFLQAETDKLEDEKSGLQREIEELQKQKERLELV"}
{"Change": "I28Q", "binding fitness [natural log]": -0.487}
{"Change": "Q41G", "binding fitness [natural log]": -0.63}
{"Change": "A46Q", "binding fitness [natural log]": -0.387}
{"Change": "M51W", "binding fitness [natural log]": -0.503}
{"Change": "V56W", "binding fitness [natural log]": -1.41}
{"Change": "M51T", "binding fitness [natural log]": -0.295}
{"Change": "A29Y", "binding fitness [natural log]": -0.671}
{"Change": "E33V", "binding fitness [natural log]": -0.779}
{"Change": "L52C", "binding fitness [natural log]": -1.47}
{"Change": "T37M", "binding fitness [natural log]": -0.0901}
{"Change": "R53I", "binding fitness [natural log]": -1.4}
{"Change": "M51R", "binding fitness [natural log]": -0.342}
{"Change": "L45F", "binding fitness [natural log]": -1.14}
{"Change": "K39H", "binding fitness [natural log]": -0.771}
{"Change": "T37Q", "binding fitness [natural log]": -0.176}
{"Change": "V35A", "binding fitness [natural log]": -0.779}
{"Change": "L31Y", "binding fitness [natural log]": -0.887}
{"Change": "N42I", "binding fitness [natural log]": -0.306}
{"data": "Sample 4", "target": "UBE2C UBC core domain (UniProt O00762)", "technique": "yeast two-hybrid", "matrix": "yeast", "notes": "mostly zero background", "relative to": "not given", "reading": "higher = stronger interaction", "B1": "RFWD3 RING domain (UniProt Q6PCD5); chain ASMDEEEGDTCTICLEQWTNAGDHRLSALRCGHLFGYRCISTWLKGQVRKCPQCNKKARHSDIVV", "B2": "SH3RF1 RING domain (UniProt Q7Z6J0); chain DESALLDLLECPVCLERLDASAKVLPCQHTFCKRCLLGIVGSRNELRCPECRTLVGSGVEEL", "B3": "DTX2 RING domain (UniProt Q86UW9); chain EELKVPPDEDCIICMEKLSTASGYSDVTDSKAIGSLAVGHLTKCSHAFHLLCLLAMYCNGNKDGSLQCPSCKTIYGEKTGTQ", "B4": "RNF19A RING domain (UniProt Q9NV58); chain ISKQIGDFIECPLCLLRHSKDRFPDIMTCHHRSCVDCLRQYLRIEISESRVNISCPECTERFNPHDIR", "B5": "RNF133 RING domain (UniProt Q8WVZ7); chain DEEINPNGDSCVICFERYKPNDIVRILTCKHFFHKNCIDPWILPHGTCPICKCDILKVLGIQ", "B6": "MAP3K1 RING domain (UniProt Q13233); chain NSIKDEEEQMCPICLLGMLDEESLTVCEDGCRNKLHHHCMSIWAEECRRNREPLICPLCRSKWRSHDFYS", "chain of UniProt O00762 (whole entry, looked up)": "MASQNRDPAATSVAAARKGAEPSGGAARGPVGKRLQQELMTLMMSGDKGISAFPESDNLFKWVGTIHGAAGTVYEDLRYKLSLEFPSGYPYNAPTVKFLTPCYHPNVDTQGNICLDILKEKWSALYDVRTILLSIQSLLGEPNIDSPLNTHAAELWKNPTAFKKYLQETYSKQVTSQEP"}
{"Molecule": "FDGDVDPDLKCALCHKVLEDPLTTPCGHVFCAGCVLPWVVQEGSCPARCRGRLSAKELN (PDZRN3 RING domain (UniProt Q9UPQ7))", "lacZ reporter activity": 0}
{"Molecule": "KETIKKTTKPCPRCHVPVEKNGGCMHMKCPQPQCRLEWCWNCGCEWNRVCMG (PRKN RING domain (UniProt O60260))", "lacZ reporter activity": 0}
{"Molecule": "B1 (RFWD3 RING domain)", "lacZ reporter activity": 0}
{"Molecule": "B2 (SH3RF1 RING domain)", "lacZ reporter activity": 0}
{"Molecule": "GSRLQEINDVCAICYHEFTTSARITPCNHYFHALCLRKWLYIQDTCPMCHQKVYIEDDIK (RNF139 RING domain (UniProt Q8WU17))", "lacZ reporter activity": 0}
{"Molecule": "B3 (DTX2 RING domain)", "lacZ reporter activity": 0}
{"Molecule": "B4 (RNF19A RING domain)", "lacZ reporter activity": 0}
{"Molecule": "B5 (RNF133 RING domain)", "lacZ reporter activity": 0}
{"Molecule": "AMYLQENGIDCPKCKFSYALARGGCMHFHCTQCRHQFCSGCYNAFYAKNKC (RNF31 RING domain (UniProt Q96EP0))", "lacZ reporter activity": 0}
{"Molecule": "NLSELTPYILCSICKGYLIDATTITECLHTFCKSCIVRHFYYSNRCPKCNIVVHQTQPLY (PCGF6 RING domain (UniProt Q9BYE7))", "lacZ reporter activity": 0}
{"Molecule": "YQNEVDDDLVCHICLQPLLQPLDTPCGHTFCYKCLRNFLQEKDFCPLDRKRLHFKLCKK (LNX2 RING domain (UniProt Q8N448))", "lacZ reporter activity": 0}
{"Molecule": "B6 (MAP3K1 RING domain)", "lacZ reporter activity": 0}
{"note": "Some of these lines once more (sample 2):"}
{"Change": "D8G", "normalised enrichment score": 0.816}
{"Change": "T11N", "normalised enrichment score": 0.896}
{"Change": "R5E", "normalised enrichment score": 0.263}
{"Change": "T11E", "normalised enrichment score": 1.86}
{"Change": "L7S", "normalised enrichment score": 0.0775}
{"Change": "R6Y", "normalised enrichment score": 0.595}
{"Change": "D8C", "normalised enrichment score": 0.673}
{"Change": "D8P", "normalised enrichment score": 0.339}
{"Change": "D12M", "normalised enrichment score": 0.99}
